# Experimental data from different studies.
# Compare with care: the assays were run in different laboratories. “And” joins repeats or separate records; there may be more than shown. Numbers after ± are the reported error.
SMILES,assay,system,conditions,scale,quantity,result
COc1cc(/C=C/C(=O)OC2C(O)CC(O)(C(=O)O)CC2O)ccc1O (centres unmarked),,human plasma,median,,plasma concentration,10.2 nM
CCn1ccc2c([C@](O)(c3ccc(C(F)(F)F)nc3)C3CC3)n(C)nc2c1=O,,"rat Sprague-Dawley male, plasma","intravenous, 1 mg/kg",,CL,20.7 ± 1.81 mL/min/kg
C[C@@H]1CCO[C@H]2Cn3cc(C(=O)NCc4ccc(F)cc4F)c(=O)c(O)c3C(=O)N12,,"human paediatric patients, weight 6 to under sample A kg, plasma","oral, 4.8 mg granules, steady state, geometric mean, population PK post-hoc, N 1",,AUC(0-24),25400 ng·h/mL
CC(=O)N(C)[C@H]1CCN(C(=O)c2cnc3c(c2)C[C@](C)(c2ccc(F)cc2)N3)C1,,human,dose not given,,alanine aminotransferase,196 U/L
O=C(O)c1ccccc1O,,human plasma,"median, both sexes",,plasma concentration,2300 nM
OCc1nc2ccc(NCc3ccc(C(F)(F)F)cc3)cc2[nH]1,,"male Balb/c mice, heart","oral, 10 mg/kg, 6 h",relative to: tissue over plasma,tissue/plasma ratio,3.27 ± 0.2
NC1(C(=O)N[C@@H](CCO)c2ccc(Cl)cc2)CCN(c2nc[nH]c3nccc2-3)CC1,,metastatic CRPC patients,"400 mg b.i.d., any grade, treatment-related, added: enzalutamide 160 mg daily",,incidence of Leukopenia,0%
CN(C(=O)n1cnc(-c2cccnc2)c1)[C@H]1CC[C@H](O)CC1,,"Wistar rat, medulla oblongata","oral, 10 mg/kg of BIA 10-2474, 4 h, single dose",,concentration,29.6 ± 7.5 ng/g
CCc1c(-c2ccccc2)c(-c2ccccc2)nn1-c1ccccc1-c1cccc(OCC(=O)O)c1,,Sprague-Dawley rat,"intravenous, dose not given",,AUC back-extrapolated observed,32.5% and 31.5% and 28.2%
C=CC(=O)N1CCC(c2ccc(C(N)=O)c(-c3ccc(Oc4ccccc4)cc3)n2)CC1,,relapsed/refractory mantle cell lymphoma patients,"oral, 150 mg once daily, part, CTCAE v4.03",,TEAE rate,50%
[H]/N=C(/N)N[C@H]1[C@H](O)[C@@H](O)[C@H](O[C@@H]2O[C@@H](C)[C@](O)(C=O)[C@H]2O[C@@H]2O[C@@H](CO)[C@H](O)[C@@H](O)[C@@H]2NC)[C@@H](N/C(N)=N\[H])[C@@H]1O,starch gel membrane permeability,Gram-negative envelope surrogate,"200 µM, 90 min, pH 7.4",,amount permeated,3.06 nmol
CO[C@@H]1[C@H](OC(=O)N2CC(CCN3CCOCC3)C2)CC[C@]2(CO2)[C@H]1[C@@]1(C)O[C@@H]1CC=C(C)C,,humans,"subcutaneous, 0.2 mg twice weekly for 4 weeks, day 28",relative to: baseline,international normalized ratio,0 ± 0.04
CCc1cc(OC)c2nccc(N3CCc4c(cc(Cn5ccnc5)cc4-c4cn(C)nc4C(F)(F)F)C3=O)c2c1,,"Sprague Dawley rat, male, plasma","oral, 50 mg/kg",,AUC extrapolated fraction,0.9%
CC(C)(C(=O)N1CCOc2c(C#N)cncc2C1)C(F)F,measured: Palpitations,human,"oral, 20 mg twice daily, 14 days, multiple ascending dose",,subjects with adverse event,0%
O=S(=O)(O)Oc1cc([C@H]2Oc3cc(O)cc(O)c3C[C@H]2O)ccc1O,,human plasma,mean,,plasma concentration,819 nM
O=C(Nc1nc2cccc(-c3ccc(CN4CCS(=O)(=O)CC4)cc3)n2n1)C1CC1,measured: renal and urinary disorders,rheumatoid arthritis patients,"oral, 300 mg once daily, 4 weeks, any relatedness",,treatment-emergent adverse events,5%
Cc1cc(Nc2cc3ncccc3c(N[C@@H]3C[C@H]4CC[C@@H](C3)N4CCC#N)n2)n[nH]1,,"human, plasma","1000 mg single dose, mean",,AUC(0-24),126 ng·h/mL
CC(C)n1c(Nc2cccnc2)nc2cnc(Nc3ccc(N4CCN(C)CC4)cc3)nc21,measured: urine leukocytes positive,"healthy human, male","oral, dose not given, CTCAE grade 1-3",,subjects with TEAE,2.4%
CCn1cc(C(=O)O)c(=O)c2ccc(C)nc21,starch gel membrane permeability,Gram-negative envelope surrogate,"200 µM, 30 min, pH 7.4",,amount permeated,2.59 nmol
CC[C@H](C)[C@H](NC(=O)[C@H](Cc1ccccc1)NC(=O)[C@H](CCC(=O)O)NC(=O)[C@H](CCCCNC(=O)COCCOCCNC(=O)COCCOCCNC(=O)CC[C@H](NC(=O)CCCCCCCCCCCCCCCCC(=O)O)C(=O)O)NC(=O)[C@H](C)NC(=O)[C@H](C)NC(=O)[C@H](CCC(N)=O)NC(=O)CNC(=O)[C@H](CCC(=O)O)NC(=O)[C@H](CC(C)C)NC(=O)[C@H](Cc1ccc(O)cc1)NC(=O)[C@H](CO)NC(=O)[C@H](CO)NC(=O)[C@@H](NC(=O)[C@H](CC(=O)O)NC(=O)[C@H](CO)NC(=O)[C@@H](NC(=O)[C@H](Cc1ccccc1)NC(=O)[C@@H](NC(=O)CNC(=O)[C@H](CCC(=O)O)NC(=O)C(C)(C)NC(=O)[C@@H](N)Cc1cnc[nH]1)[C@@H](C)O)[C@@H](C)O)C(C)C)C(=O)N[C@@H](C)C(=O)N[C@@H](Cc1c[nH]c2ccccc12)C(=O)N[C@@H](CC(C)C)C(=O)N[C@H](C(=O)N[C@@H](CCCNC(=N)N)C(=O)NCC(=O)N[C@@H](CCCNC(=N)N)C(=O)NCC(=O)O)C(C)C,,type 2 diabetes patients,"dose not given, hypoglycaemic clamp, nadir to recovery",relative to: placebo,systolic blood pressure difference,1.4 mm Hg
Cc1nc(-c2cnc(NC(C)C)n(C)c2=O)ccc1Oc1ccnc(-c2cnn(C)c2)c1,,"Beagle dog, male, plasma","oral, 10 mg/kg, crossover study, mean",,apparent volume of distribution,11.2 L/kg
Cn1cc([C@H]2C[C@H]3CSC(N)=N[C@@]3(c3ccc(F)cc3F)CO2)cn1,,129/SVE mouse male,"subcutaneous, 3 mg/kg, 3 h",,CSF concentration,16 nM
CN[C@H]1C(=O)N[C@@H]2Cc3ccc(cc3)Oc3cc4cc(c3O[C@@H]3O[C@H](C(=O)O)[C@@H](O)[C@H](O)[C@H]3NC(=O)CCCCCCCCC(C)C)Oc3ccc(cc3Cl)[C@@H](O)[C@@H]3NC(=O)[C@H](NC(=O)[C@@H]4NC(=O)[C@@H](NC2=O)c2cc(cc(O)c2Cl)Oc2cc1ccc2O)c1ccc(O)c(c1)-c1c(O[C@H]2O[C@H](CO)[C@@H](O)[C@H](O)[C@@H]2O)cc(O)cc1[C@@H](C(=O)NCCCN(C)C)NC3=O,population PK model,paediatric patients,"dose not given, reference weight 70 kg",,peripheral volume of distribution,6.1 L
COc1ccc2[nH]c([S+]([O-])Cc3ncc(C)c(OC)c3C)nc2c1 (centres unmarked),,"human male, dried plasma spots","oral, dose not given, 4 h, added: fluvoxamine and voriconazole",,R/S enantiomer ratio,1.1
Cn1cc(Nc2nccc(-c3ccc4c(c3)CN(C3COC3)CC[C@H]4NC(=O)c3cn(C(C)(C)C)nn3)n2)cn1,,"human, whole blood","50 mg twice daily, day 14",relative to: pre-dose baseline,NK cell count change,14.9%
CCc1cc(C(=O)NC)c2nccc(N3CCc4c(cc(Cn5ccnc5)cc4-c4cn(C)nc4C(F)(F)F)C3=O)c2c1,,Sprague Dawley rats,"oral, 100 mg/kg once daily, 7 days",relative to: vehicle,serum HDL change,2.5%
COc1cccc2c1c(O)c(C(=O)N(C)c1ccc(C(F)(F)F)cc1)c(=O)n2C,,"mouse, CP model, serum","0.154 µmol/kg, 4 weeks",,serum blood urea nitrogen,no effect
Cc1cc(NC2CCN(C(=O)OC3CCN(C(=O)/C=C/CN(C)C)C3)CC2)n2ncc(C(C)C)c2n1 (centres unmarked),"Phase I dose escalation CTCAE v4.0, measured: blood creatinine increased",patients with advanced solid tumours,"dose not given, Total dosing any grade",,patients with adverse event,6%
C[C@@H]1COCCN1c1cc(C2([S@](C)(=N)=O)CC2)nc(-c2cc[nH]c3nccc2-3)n1,,Japanese advanced solid tumour patients,"oral, 160 mg twice daily, any grade",,Diarrhea incidence,0%
C[C@H](NC(=O)/C(C#N)=C/c1cccc(Br)n1)c1ccccc1,LC-MS/MS,"patients, plasma","oral, 2 mg/kg, cycle 1 day 8",,AUC(all),64 ng·h/mL
C[C@H]1CN(C(=O)CC#N)[C@]12CCN(c1ncnc3[nH]ccc13)C2,,human,"oral, 12 mg single dose",,participants with catheter site bruise,0%
Cc1c2oc3c(C)ccc(C(=O)N[C@@H]4C(=O)N[C@H](C(C)C)C(=O)N5CCC[C@H]5C(=O)N(C)CC(=O)N(C)[C@@H](C(C)C)C(=O)O[C@@H]4C)c3nc-2c(C(=O)N[C@@H]2C(=O)N[C@H](C(C)C)C(=O)N3CCC[C@H]3C(=O)N(C)CC(=O)N(C)[C@@H](C(C)C)C(=O)O[C@@H]2C)c(N)c1=O,LC-MS,"children with cancer, plasma","dose not given, 8 h",,minimum plasma concentration,1.2 µg/L
Cc1ccc(O)c(O)c1,,human plasma,mean,,plasma concentration,5050 nM
C[C@@H](O)[C@H]1C(=O)N2C(C(=O)O)=C(SCCN=CN)C[C@H]12,starch gel membrane permeability,Gram-negative envelope surrogate,"200 µM, 45 min, pH 7.4",,amount permeated,3.13 nmol
CNC(=O)c1cc(Oc2ccc(NC(=O)Nc3cc(C(C)(C)C)nn3-c3ccc4ncccc4c3)c(F)c2)ccn1,,human,"oral, dose not given, cycles 1 and 2, Medium Cmax subgroup",,patients with any AE of special interest,87%
CCn1ncc2c1-c1cnc(N)c(c1)O[C@H](C)c1cc(F)ccc1-c1nn(C)nc1C2,,"Balb/c nude mouse, female, PDX, plasma","po, 0.04 mg/kg BID, 12 h, 5 days dosing",,"Cmin, unbound",0.2 ± 0.03 nM
CC(=O)O[C@H]1C(=O)[C@@]2(C)[C@H]([C@H](OC(=O)c3ccccc3)[C@]3(O)C[C@H](OC(=O)[C@H](O)[C@@H](NC(=O)c4ccccc4)c4ccccc4)C(C)=C1C3(C)C)[C@]1(OC(C)=O)CO[C@@H]1C[C@@H]2O,measured: neutropenia,patients with advanced solid tumours,"intravenous, dose not given, grade 1 and 2, possibly related to drug",,adverse event incidence,20%
Cn1cnc2[nH]c(=O)[nH]c(=O)c21,,"human, both sexes, plasma",,,samples above LOQ,100%
O=C(COc1ccc(Cl)cc1)NC12CC(c3nnc([C@H]4C[C@@H](OC(F)(F)F)C4)o3)(C1)C2,measured: Headache,human,"oral, dose not given, 14 days",,adverse event incidence,55.9%
CNC(=O)c1cccc(-c2ccc(O[C@H]3O[C@H](CO)[C@@H](O)[C@H](O)[C@@H]3O)c(C)c2)c1,,"male Sprague-Dawley rat, plasma","oral, 10 mg/kg, group mean",,AUC(0-all),23.2 ng·h/mL
CO[C@@H]1[C@@H](OC(N)=O)[C@@H](O)[C@H](Oc2ccc3c(O)c(NC(=O)c4ccc(O)c(CC=C(C)C)c4)c(=O)oc3c2C)OC1(C)C,starch gel membrane permeability,Gram-negative envelope surrogate,"200 µM, 45 min, pH 7.4",,amount permeated,1.5 nmol
O=C(O)CCC(=O)O.[2H]C([2H])([2H])Oc1cc(C)c2[nH]ccc2c1CN1CC[C@@H](C2CC2)C[C@H]1c1ccc(C(=O)O)cc1,multiple ascending dose,healthy Chinese subjects,50 mg twice daily,,subjects with reduced potassium TEAE,0%
CCOC(=O)c1cc(O)c(O)c(O)c1,,human plasma,median,,plasma concentration,4.4 nM
CO[C@H]1/C=C/O[C@@]2(C)Oc3c(C)c(O)c4c(O)c(c(/C=N/N5CCN(C)CC5)c(O)c4c3C2=O)NC(=O)/C(C)=C\C=C\[C@H](C)[C@H](O)[C@@H](C)[C@@H](O)[C@@H](C)[C@H](OC(C)=O)[C@@H]1C,starch gel membrane permeability,Gram-negative envelope surrogate,"200 µM, 90 min, pH 7.4",,amount permeated,3.16 nmol

# Some of these lines once more:
SMILES,assay,system,conditions,scale,quantity,result
C[C@@H](O)[C@H]1C(=O)N2C(C(=O)O)=C(SCCN=CN)C[C@H]12,starch gel membrane permeability,Gram-negative envelope surrogate,"200 µM, 45 min, pH 7.4",,amount permeated,3.13 nmol
CC(C)n1c(Nc2cccnc2)nc2cnc(Nc3ccc(N4CCN(C)CC4)cc3)nc21,measured: urine leukocytes positive,"healthy human, male","oral, dose not given, CTCAE grade 1-3",,subjects with TEAE,2.4%
O=C(Nc1nc2cccc(-c3ccc(CN4CCS(=O)(=O)CC4)cc3)n2n1)C1CC1,measured: renal and urinary disorders,rheumatoid arthritis patients,"oral, 300 mg once daily, 4 weeks, any relatedness",,treatment-emergent adverse events,5%
CN(C(=O)n1cnc(-c2cccnc2)c1)[C@H]1CC[C@H](O)CC1,,"Wistar rat, medulla oblongata","oral, 10 mg/kg of BIA 10-2474, 4 h, single dose",,concentration,29.6 ± 7.5 ng/g
Cn1cc(Nc2nccc(-c3ccc4c(c3)CN(C3COC3)CC[C@H]4NC(=O)c3cn(C(C)(C)C)nn3)n2)cn1,,"human, whole blood","50 mg twice daily, day 14",relative to: pre-dose baseline,NK cell count change,14.9%
NC1(C(=O)N[C@@H](CCO)c2ccc(Cl)cc2)CCN(c2nc[nH]c3nccc2-3)CC1,,metastatic CRPC patients,"400 mg b.i.d., any grade, treatment-related, added: enzalutamide 160 mg daily",,incidence of Leukopenia,0%
O=S(=O)(O)Oc1cc([C@H]2Oc3cc(O)cc(O)c3C[C@H]2O)ccc1O,,human plasma,mean,,plasma concentration,819 nM
